Measurements from different studies.
Parts stem from different laboratories: compare values within a part only. Positions count from the first letter of the parent shown.

Series 1 — target: JUND, bZIP domain (human); technique: DHFR protein complementation; medium: yeast; baseline: wild-type JUN-FOS pair; direction: higher = stronger binding
Setting: single substitutions, most at no-binding floor
Starting sequence: JUN, bZIP domain (human); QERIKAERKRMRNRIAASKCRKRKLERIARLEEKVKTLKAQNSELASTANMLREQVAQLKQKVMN; partner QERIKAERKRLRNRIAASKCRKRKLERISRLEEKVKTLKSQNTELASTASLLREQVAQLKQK
Variant	binding fitness
K39D	-1.08 natural log
Q55V	-1.11 natural log
E33H	-0.936 natural log
E32N	-1.14 natural log
E44H	-0.853 natural log
A29D	-1.06 natural log
A57Q	-0.75 natural log
S47H	-0.541 natural log
S43K	-0.344 natural log
E33S	-0.936 natural log
E33G	-1.06 natural log
A49S	-0.966 natural log
K39V	-0.623 natural log
K34W	-0.71 natural log
A57D	-0.488 natural log
E32Q	-1.01 natural log
V56F	-1.05 natural log
A49R	-1.17 natural log
E33K	-0.778 natural log
V56Y	-0.938 natural log
E33L	-0.802 natural log

Series 2 — technique: protein binding microarray; molecule type: double-stranded DNA, one strand shown; medium: in vitro; concentration: not given; baseline: not given; direction: higher = stronger binding
Target: Histone acetyltransferase KAT6A, winged helix 1, GST fusion (KAT6A, Homo sapiens, UniProt Q92794, residues 1-85)
Setting: 8-mer, flanks averaged, mean of 2 arrays, mostly near background
Residues (chain): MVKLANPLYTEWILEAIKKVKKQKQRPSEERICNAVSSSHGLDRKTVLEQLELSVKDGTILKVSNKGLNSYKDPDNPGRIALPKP
Sequence	E-score
TGGAGTAA	-0.133
TATCCCAA	-0.00779
ACTAGCGG	0.304
CGATGCCA	-0.103
TGCCTCAA	-0.0779
GGAAAGAA	-0.115
ACGGATGC	0.205
CCGATTTC	-0.0274
CACTGCGA	0.0304
AGCGCCTG	0.167
ATCTATCC	-0.113
CCAGAAAG	-0.163
ACGGCTGC	0.318
GAGTGGCA	-0.0928
AATCAAGC	-0.0249
GCAGTTCA	-0.0483
TAAATTTA	-0.0783
ATAGAACA	-0.21

Series 3 — target: CCNB3, cyclin fold, Cln2 fusion (human); technique: yeast growth competition, sequencing; medium: yeast; setting: weak parent motif; baseline: not given; direction: higher = stronger binding
Starting sequence: CDKN1A docking peptide (human); SKACRRLFGPVDS
Variant	normalised enrichment score
SKACRRLFGPVVS [D12V]	0.38
SKADRRLFGPVDS [C4D]	-0.0381
SKACRFLFGPVDS [R6F]	0.433
SKACRRLFYPVDS [G9Y]	0.56
SKACARAFGPVDS [R5A L7A]	0.0785
SKACRRLFGPIDS [V11I]	0.508
SKACRRLYGPVDS [F8Y]	-0.0687
SKACRRLFGPPDS [V11P]	0.234
SKACRRAFGPVDS [L7A]	-0.0797
SKACRRLFGPHDS [V11H]	0.381
SKACRRLFGPCDS [V11C]	0.493
SKACRRLRGPVDS [F8R]	0.289
SKACRRLFCPVDS [G9C]	0.446
SAACRRLFGPVDS [K2A]	0.465
SKACMRLFGPVDS [R5M]	0.233
SKACRRLFGPADS [V11A]	0.821
SKACTRLFGPVDS [R5T]	-0.0456
SKAPRRLFGPVDS [C4P]	0.361
SKACRRLAGPVDS [F8A]	-0.00304
SKACRRLFGPVLS [D12L]	0.433
SKACRRLFGPWDS [V11W]	0.809
SKACRRLWGPVDS [F8W]	0.299
SKACRRLFGPFDS [V11F]	0.436
SKQCRRLFGPVDS [A3Q]	0.281
SKACRRLFPPVDS [G9P]	0.503

Series 4 — technique: RNA Bind-n-Seq; molecule type: RNA; medium: in vitro; concentration: not given; baseline: input RNA pool; direction: higher = stronger binding
Target: RING finger protein unkempt homolog, zinc fingers 1-6, GST-SBP tag (UNK, Homo sapiens, UniProt Q9C0B0, residues 30-357)
UniProt Q9C0B0, sequence (30-357, looked up): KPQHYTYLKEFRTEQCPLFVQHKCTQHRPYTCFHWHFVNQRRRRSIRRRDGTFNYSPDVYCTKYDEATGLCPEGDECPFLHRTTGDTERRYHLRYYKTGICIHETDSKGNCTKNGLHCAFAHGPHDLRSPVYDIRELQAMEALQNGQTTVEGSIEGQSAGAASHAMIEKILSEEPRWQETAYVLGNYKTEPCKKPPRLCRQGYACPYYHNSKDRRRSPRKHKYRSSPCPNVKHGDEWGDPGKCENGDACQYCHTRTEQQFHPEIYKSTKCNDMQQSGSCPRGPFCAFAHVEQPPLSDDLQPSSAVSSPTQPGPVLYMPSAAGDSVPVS
Setting: RNA with constant flanks, human-mouse chimeric sites, ends assumed
Constant ends, left off below: GGGAGUUCUACAGUCCGACGAUC … CAACAGAGGAUUGAGCAUCA
Sequence	bound/input enrichment [ratio]
AGAGAAAUGAGAAAGAAUCUUACACAAGAAGAGAUGCAAAGAAUGUCUACUAGAGUCCUUUUGGCGACUCUUUCCAUUCCUAUUACUCCUGAGCGAACGGAUAUUGCUCGACUUUUGGAU	0.154
UUACCCGAGAACGAGGAUGAGCUGGAGAGCACCAACAGACGCUAUACCAAGAGGGACUGCAGCACUUUUCUCAGAACUAGUGAGACGGGCAUCGUGGACCAGGUCAUGGUCACUCUCAAC	0.163
UUCAAAGAAAAGGGCAGUUCAUAAAUAUCAUAAGUAACUCUGGGGGAGGGAAAUUCUAACUAGUUUGUUAAUUUUCCCCCAAAUGAAGCCAAAGUGUGUGUUGAAGAACUGAGAAAAAAU	1.53
GCUCUUGGGAAUGUAAUCAGCGCCUUGGGGGACAAGAGCAAGAGAGCCACCCAUGUCCCUUACAGAGAUUCCAAGCUGACAAGACUCUUGCAGGAUUCCCUUGGGGGUAAUAGCCAAACC	0.136
CUCAGAGAUGUGGCAUAUCAGUAUGUGAAAAAGGGGUCUCGUAUAUUUUUGGAAGGGAAAGUGGACUAUGGCGAGUACAUGGAUAAAAACAAUGUGAGGCGGCAAGCAACAACAAUCAUA	0.38
AAAGAGAAACUAAAGCAACUAAUAGAGGAAGAGGAUUGCAAAGAGAAUUUCAUAGAGGAAACUAGGAUUAUUAGCAAACAUGAGUUAUAUUCCAGAGCGUCUCAGAAACCCCAGCCAAAC	5.22
CACACCCUCUUCUGCGGGACCCUCAUCUUGCAGGCCCGGGCCUAUGUGGGACCGCACGUCCUGGCAGUGGUGACCCGCACAGGGUUCUGCACGGCAAAAGGGGGCCUGGUGAGCUCCAUC	0.104
ACAGUUAUACACUGUUGUUUCAUUUUCAUAUAUUCUUGUAGUGUCUGCUUGCCUGUGUCUUUUAGUAAAAUAAAAUAAGCCUUUGAAAAUAUUUUAGCAUGGUAUUUAACAUUUUCUAAA	2.74
CUGAGGAUACCACUGAAGAGACCUUAAAAGGAGUCAUUGAGGGCUCUGUUCGUGCAAGAAUAGUCACCUGACCGGGAACUGGUUCUUCCAAAGGGUUUGGUUUUGUAGACUUUAAUAGUG	0.827
ACCUCCCCCUCCCGCCUCACCCCACCCAAGAAAGAAAGAAAGUUUUUGGCGUUUCUUUUCCUUCCCCAUACAAAGUGAUUACAGUUUAGAGUCUAUGGGUCUAUCGAAGGGCUUGACGGA	0.558
GAAUCCUACUCAGGCGGAUUUUGCAACACCAAGCUCAAGUAGCAAUUAUCUUAGUCACAGUAGGGUAGUUUUGGGGCUCUGUGGCCAGGGUUUUAUUCAUGUGCAGGUUUGGAAAAUGUA	2.09

Series 5 — technique: RNA Bind-n-Seq; molecule type: RNA; medium: in vitro; concentration: 1 µM; setting: whole 134-nt RNA, ends assumed; together with: 150 mM KCl; baseline: input library; direction: higher = stronger binding
Target: Ras GTPase-activating protein-binding protein 1, C-terminal RGG region (G3BP1, Homo sapiens, UniProt Q13283)
UniProt Q13283, sequence (whole entry, looked up): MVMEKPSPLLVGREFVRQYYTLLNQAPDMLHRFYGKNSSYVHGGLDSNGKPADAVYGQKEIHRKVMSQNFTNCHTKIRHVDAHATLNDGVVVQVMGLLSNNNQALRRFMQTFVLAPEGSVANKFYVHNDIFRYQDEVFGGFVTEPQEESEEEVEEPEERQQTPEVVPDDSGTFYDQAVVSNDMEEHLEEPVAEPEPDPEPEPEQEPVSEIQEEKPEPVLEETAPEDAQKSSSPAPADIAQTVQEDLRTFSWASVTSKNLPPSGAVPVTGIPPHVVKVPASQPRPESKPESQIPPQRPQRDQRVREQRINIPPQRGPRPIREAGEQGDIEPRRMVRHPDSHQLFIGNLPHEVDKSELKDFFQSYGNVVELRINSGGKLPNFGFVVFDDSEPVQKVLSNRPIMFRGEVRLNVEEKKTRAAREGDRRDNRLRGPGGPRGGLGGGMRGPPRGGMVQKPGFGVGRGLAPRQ
Constant ends, left off below: GGGAGUUCUACAGUCCGACGAUC … UGGAAUUCUCGGGUGUCAAGG
Sequence	log2 enrichment
UGGGAGGUGGAUUUUGUUUAUUUUUUUAGCUCAUUUCCAGGGGUGGGAAUUUUUUUUUAAUAUGUGUCUUGAAUAAAGUUGUUUUUGAAA	3.97
GCAGGAAGUAAAGACAAAUGGAAAUGCUUCGGAUAGUGGCAGGGGUGGGGGUUGCUAAGGAAAGGGUGGGAUGGGAGUGGGUAAAGAGUU	3.02
ACCAUGCAGGUGGGCAUUUUUGGGAAGUGGGGCAAGGGGGGGAUAGGGAGGGGGGUAACACUUUGGGAACAGGUGGUCCCAGGUCGUUUC	-1.31
CCUGUGCUACACAUCGUAUGUACCGAAUCGGGGAAAAAAAGGGGAAAAAAAGGGGUGGGGAAAGUAUUAUGUUACGCCGUUCGGAUCUGC	0.532
AGUCCUGUGCUACACAUCGUAUGUACCGAAUCGGGGUUUUUUUGGGGUGGGGUGGGGAAAGUAUUAUGUUACGCCGUUCGGAUCUGCACU	1.51
GUCCUGUGCUACACAUCGUAUGUACCGAAUCGGGCCCCCGGGCCCCCGGGCCCCCGGGAAAGUAUUAUGUUACGCCGUUCGGAUCUGCAC	-1.98
UCCUGUGCUACACAUCGUAUGUACCGAAUCGGGGUUUUUUUGGGGUUUGGGGUUUGGGGAAAGUAUUAUGUUACGCCGUUCGGAUCUGCA	2.28
UGGGAGGUGGAUUUUGUUUAUUUUUUGAGCUCAUUUCCAGGGGUGGGAAUUUUUUUUUAAUAUGUGUCAUGAAUAAAGUUGUUUUUGAAA	3.73
UCCCCCCUAUUGGAAGUAAAGGGGAACAUAGAACUGAAGAGACCUCUGAUUAAGGCCCCUUCCCAGCUGCCUCUCUCAGGAAGCAGACUC	-1.71
GUCCUGUGCUACACAUCGUAUGUACCGAAUCGGCCCCCCGGGCCCCCCGGCCCCCCGGGAAAGUAUUAUGUUACGCCGUUCGGAUCUGCA	-1.23
UGCUUCUGAGUUGCCCAGGAGACCACUGGCAGAUGUCCCGGCGAAGAGAAGAGACACAUUGUUGGAAGAAGCAGCCCAUGACAGCUCCCC	-0.995
CUCAAGUCCUGUGCUACACAUCGUAUGUACCGAAUCGGGGCCGGCCGGGGCCGGAAAGUAUUAUGUUACGCCGUUCGGAUCUGCACUUCC	-1.21
CACAGACAACACGCACCCACACAGACACAGAGGGAAGGGGUCGGGAUGGGGACAGGGUGCACAGCAGGGCGGGGUAGGACCCCAGCCCCU	-0.355
GCAGGAAGUAAAAACAAAUGGAAAUGCUUCGGAUAGUGGCAGGGGUGGAAAUUGCUAAGGAAAGGGUGGGAUGGGAGUGGGUAAAGAGUU	1.59

A few entries again (series 1):
Variant	binding fitness
S43K	-0.344 natural log
E33S	-0.936 natural log
E33G	-1.06 natural log
A49S	-0.966 natural log
K39V	-0.623 natural log
K34W	-0.71 natural log
A57D	-0.488 natural log
E32Q	-1.01 natural log
